Assay results from different studies.
Each numbered part is a random draw from the data of one study; scales do not carry over between parts.
UniProt Q9UBE8, sequence (whole entry, looked up): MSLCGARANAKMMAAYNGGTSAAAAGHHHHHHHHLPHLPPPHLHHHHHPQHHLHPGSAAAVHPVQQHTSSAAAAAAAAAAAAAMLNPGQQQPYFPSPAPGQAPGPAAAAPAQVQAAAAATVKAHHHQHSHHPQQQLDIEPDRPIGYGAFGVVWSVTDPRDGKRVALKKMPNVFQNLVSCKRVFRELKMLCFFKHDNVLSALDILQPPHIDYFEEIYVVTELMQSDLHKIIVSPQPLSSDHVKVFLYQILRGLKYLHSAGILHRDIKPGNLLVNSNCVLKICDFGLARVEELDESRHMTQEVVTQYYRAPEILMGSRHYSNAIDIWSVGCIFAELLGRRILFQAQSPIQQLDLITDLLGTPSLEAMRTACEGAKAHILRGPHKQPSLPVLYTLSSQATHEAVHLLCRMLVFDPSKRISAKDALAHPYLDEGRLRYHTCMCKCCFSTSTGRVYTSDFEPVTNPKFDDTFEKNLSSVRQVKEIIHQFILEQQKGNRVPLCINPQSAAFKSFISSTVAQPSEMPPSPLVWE
UniProt O00506, sequence (whole entry, looked up): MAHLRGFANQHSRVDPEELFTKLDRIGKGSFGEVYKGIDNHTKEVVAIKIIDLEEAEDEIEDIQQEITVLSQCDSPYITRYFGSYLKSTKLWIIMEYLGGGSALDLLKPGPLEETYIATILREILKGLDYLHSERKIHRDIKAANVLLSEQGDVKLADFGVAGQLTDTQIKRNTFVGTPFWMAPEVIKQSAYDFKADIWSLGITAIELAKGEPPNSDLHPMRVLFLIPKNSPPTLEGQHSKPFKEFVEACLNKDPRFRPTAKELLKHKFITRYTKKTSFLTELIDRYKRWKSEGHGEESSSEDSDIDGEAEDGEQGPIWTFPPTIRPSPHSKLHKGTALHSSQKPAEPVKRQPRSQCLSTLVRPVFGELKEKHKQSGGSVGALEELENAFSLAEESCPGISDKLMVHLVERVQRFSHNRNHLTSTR
UniProt P0C1S8, sequence (whole entry, looked up): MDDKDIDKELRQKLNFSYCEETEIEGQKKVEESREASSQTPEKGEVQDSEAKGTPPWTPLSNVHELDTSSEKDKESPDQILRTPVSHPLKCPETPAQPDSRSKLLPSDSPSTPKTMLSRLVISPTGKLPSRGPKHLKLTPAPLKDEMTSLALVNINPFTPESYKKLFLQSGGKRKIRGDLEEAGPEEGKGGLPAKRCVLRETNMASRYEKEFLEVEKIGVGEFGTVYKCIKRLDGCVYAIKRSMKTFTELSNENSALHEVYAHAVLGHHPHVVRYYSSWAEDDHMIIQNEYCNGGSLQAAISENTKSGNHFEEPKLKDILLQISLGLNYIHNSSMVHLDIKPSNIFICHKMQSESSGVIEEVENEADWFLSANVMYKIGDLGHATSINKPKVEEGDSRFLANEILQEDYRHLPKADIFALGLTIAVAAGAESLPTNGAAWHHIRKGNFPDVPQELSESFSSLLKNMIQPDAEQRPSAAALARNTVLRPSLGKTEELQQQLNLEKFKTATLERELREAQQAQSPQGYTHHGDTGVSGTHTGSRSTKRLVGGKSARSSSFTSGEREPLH
UniProt P35916, sequence (whole entry, looked up): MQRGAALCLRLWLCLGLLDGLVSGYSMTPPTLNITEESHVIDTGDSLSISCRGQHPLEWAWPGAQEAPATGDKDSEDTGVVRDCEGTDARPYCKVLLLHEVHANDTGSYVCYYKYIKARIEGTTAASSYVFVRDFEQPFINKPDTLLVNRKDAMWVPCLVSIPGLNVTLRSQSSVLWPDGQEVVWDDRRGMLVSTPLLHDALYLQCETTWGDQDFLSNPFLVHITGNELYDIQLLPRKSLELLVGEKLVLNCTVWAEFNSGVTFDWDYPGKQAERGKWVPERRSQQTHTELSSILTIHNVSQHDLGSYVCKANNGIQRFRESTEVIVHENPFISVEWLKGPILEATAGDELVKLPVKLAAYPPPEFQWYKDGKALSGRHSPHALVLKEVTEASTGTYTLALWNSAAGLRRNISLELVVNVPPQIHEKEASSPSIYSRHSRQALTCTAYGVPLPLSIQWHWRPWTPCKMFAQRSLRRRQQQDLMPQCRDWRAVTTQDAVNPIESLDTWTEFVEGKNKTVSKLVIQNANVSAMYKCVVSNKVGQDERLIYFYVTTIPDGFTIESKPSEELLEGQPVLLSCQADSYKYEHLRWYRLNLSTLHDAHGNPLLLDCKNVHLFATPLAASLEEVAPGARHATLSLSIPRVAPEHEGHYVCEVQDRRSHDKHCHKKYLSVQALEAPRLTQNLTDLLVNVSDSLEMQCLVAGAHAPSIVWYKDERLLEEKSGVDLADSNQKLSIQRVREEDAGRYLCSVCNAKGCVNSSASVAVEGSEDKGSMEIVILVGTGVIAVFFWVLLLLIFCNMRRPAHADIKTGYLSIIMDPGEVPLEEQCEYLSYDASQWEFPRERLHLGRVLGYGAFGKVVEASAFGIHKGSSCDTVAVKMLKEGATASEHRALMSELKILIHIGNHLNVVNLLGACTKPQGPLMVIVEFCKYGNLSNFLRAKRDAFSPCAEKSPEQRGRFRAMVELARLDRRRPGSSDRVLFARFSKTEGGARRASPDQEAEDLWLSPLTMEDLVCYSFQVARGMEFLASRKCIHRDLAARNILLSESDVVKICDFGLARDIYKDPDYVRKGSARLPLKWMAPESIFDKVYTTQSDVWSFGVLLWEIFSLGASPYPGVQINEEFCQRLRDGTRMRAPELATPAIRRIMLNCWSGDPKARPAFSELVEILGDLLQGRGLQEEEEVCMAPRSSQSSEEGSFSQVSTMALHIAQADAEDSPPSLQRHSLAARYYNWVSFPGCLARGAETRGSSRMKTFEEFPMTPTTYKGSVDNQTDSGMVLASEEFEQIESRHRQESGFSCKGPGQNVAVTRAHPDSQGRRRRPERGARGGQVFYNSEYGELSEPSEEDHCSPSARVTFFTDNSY
UniProt P16591, sequence (whole entry, looked up): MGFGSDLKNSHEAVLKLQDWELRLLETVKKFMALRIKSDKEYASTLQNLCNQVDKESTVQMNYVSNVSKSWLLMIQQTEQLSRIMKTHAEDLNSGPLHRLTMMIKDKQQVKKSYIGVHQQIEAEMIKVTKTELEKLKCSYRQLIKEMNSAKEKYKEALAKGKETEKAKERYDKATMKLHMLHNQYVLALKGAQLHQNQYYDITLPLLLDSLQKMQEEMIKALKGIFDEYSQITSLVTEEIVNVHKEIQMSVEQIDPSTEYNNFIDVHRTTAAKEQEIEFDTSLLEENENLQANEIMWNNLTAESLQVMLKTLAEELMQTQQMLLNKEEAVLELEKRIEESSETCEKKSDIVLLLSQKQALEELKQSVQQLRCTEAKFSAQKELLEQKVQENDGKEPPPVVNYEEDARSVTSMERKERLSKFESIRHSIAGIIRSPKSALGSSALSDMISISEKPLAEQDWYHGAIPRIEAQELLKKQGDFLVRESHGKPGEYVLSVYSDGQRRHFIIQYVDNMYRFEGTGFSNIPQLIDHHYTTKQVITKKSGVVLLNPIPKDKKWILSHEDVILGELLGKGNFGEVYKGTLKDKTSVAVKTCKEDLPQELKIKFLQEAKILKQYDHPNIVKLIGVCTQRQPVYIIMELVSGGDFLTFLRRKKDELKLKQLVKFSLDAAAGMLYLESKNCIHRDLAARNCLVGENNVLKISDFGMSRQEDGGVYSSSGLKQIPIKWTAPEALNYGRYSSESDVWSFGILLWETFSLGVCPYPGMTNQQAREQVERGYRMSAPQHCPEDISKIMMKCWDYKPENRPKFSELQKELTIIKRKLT
UniProt Q8NG66, sequence (whole entry, looked up): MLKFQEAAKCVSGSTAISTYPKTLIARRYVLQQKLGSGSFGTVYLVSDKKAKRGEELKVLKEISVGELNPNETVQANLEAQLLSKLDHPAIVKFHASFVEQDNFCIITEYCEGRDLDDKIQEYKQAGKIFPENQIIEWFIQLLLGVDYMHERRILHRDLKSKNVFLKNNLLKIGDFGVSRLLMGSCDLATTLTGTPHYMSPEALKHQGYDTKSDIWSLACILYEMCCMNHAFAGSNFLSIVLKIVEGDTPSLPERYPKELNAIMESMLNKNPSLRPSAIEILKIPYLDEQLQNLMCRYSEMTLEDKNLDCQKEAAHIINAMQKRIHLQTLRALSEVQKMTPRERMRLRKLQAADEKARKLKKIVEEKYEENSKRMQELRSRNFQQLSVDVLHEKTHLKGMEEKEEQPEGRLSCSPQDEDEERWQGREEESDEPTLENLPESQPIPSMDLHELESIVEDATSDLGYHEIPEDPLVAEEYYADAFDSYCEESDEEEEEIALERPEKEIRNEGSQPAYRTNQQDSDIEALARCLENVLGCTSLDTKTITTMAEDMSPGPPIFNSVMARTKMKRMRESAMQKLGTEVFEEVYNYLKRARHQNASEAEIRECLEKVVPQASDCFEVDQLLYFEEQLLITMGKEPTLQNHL
UniProt P06241, sequence (whole entry, looked up): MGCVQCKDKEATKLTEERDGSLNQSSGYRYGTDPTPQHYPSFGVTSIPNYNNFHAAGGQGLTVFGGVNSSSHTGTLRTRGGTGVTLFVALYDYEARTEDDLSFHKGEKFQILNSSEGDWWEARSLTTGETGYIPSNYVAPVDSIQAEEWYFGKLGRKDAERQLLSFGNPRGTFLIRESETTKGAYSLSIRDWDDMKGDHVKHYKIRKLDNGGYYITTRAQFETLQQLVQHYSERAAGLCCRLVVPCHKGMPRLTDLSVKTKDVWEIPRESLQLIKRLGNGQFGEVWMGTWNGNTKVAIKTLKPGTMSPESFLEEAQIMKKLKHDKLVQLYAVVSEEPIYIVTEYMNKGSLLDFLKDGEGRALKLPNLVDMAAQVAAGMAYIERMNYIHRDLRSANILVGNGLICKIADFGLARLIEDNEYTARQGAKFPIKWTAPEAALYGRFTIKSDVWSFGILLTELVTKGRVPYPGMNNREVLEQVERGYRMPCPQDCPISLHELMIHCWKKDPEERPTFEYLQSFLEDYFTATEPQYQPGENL

Sample 1
SMILES: COc1cc2ncnc(N3CCN(C(=O)Nc4ccc(Oc5ccccc5)cc4)CC3)c2cc1OC
Effect on: enzyme activity
Mode: inhibitor
Concentration: 0.5 µM
Baseline: control
| target | remaining activity [%] |
| --- | --- |
| TAOK3 (Homo sapiens, UniProt Q9H2K8) | 95.3 |
| STK25 (Homo sapiens, UniProt O00506) | 100 |
| FYN (Homo sapiens, UniProt P06241) | 112 |
| ALK (Homo sapiens, UniProt Q9UM73) | 101 |
| CDC42BPA (Homo sapiens, UniProt Q5VT25) | 95.4 |
| PASK (Homo sapiens, UniProt Q96RG2) | 97.7 |
| HIPK1 (Homo sapiens, UniProt Q86Z02) | 96.9 |
| FGR (Homo sapiens, UniProt P09769) | 98.8 |
| LIM domain kinase 1 (LIMK1, Homo sapiens, UniProt P53667) | 69.8 |
| Cyclin-dependent kinase 3, with cyclin E (CDK3, Homo sapiens, UniProt Q00526) | 82 |
| NLK (Homo sapiens, UniProt Q9UBE8) | 99.9 |
| PRKX (Homo sapiens, UniProt P51817) | 99.3 |
| FLT4 (Homo sapiens, UniProt P35916) | 101 |
| PKN1 (Homo sapiens, UniProt Q16512) | 103 |
| ITK (Homo sapiens, UniProt Q08881) | 88.1 |
| MATK (Homo sapiens, UniProt P42679) | 96.8 |
| FER (Homo sapiens, UniProt P16591) | 99.8 |
| AKT1 (Homo sapiens, UniProt P31749) | 93.7 |
| NEK11 (Homo sapiens, UniProt Q8NG66) | 107 |
| Insulin receptor (INSR, Homo sapiens, UniProt P06213) | 98.2 |
| MARK3 (Homo sapiens, UniProt P27448) | 80.4 |

Sample 2
SMILES: CS(=O)(=O)c1cc(C2(NC(=O)c3cncc4c3cnn4-c3ccc(F)cc3)CC2)ccn1
Effect on: cell-free assay
Method: competition with immobilised ligand
Concentration: 1 µM
| target | remaining binding |
| --- | --- |
| MYLK (Homo sapiens, UniProt Q15746) | 94% |
| TSSK1B (Homo sapiens, UniProt Q9BXA7) | 63% |
| Tyrosine-protein kinase ABL1, non-phosphorylated (ABL1, Homo sapiens, UniProt P00519, Q252H) | 80% |
| DCLK2 (Homo sapiens, UniProt Q8N568) | 100% |
| MAPK11 (Homo sapiens, UniProt Q15759) | 100% |
| MAP3K19 (Homo sapiens, UniProt Q56UN5) | 91% |
| SGK2 (Homo sapiens, UniProt Q9HBY8) | 67% |
| BLK (Homo sapiens, UniProt P51451) | 100% |
| PRKCD (Homo sapiens, UniProt Q05655) | 100% |
| WEE2 (Homo sapiens, UniProt P0C1S8) | 100% |
| SRC (Homo sapiens, UniProt P12931) | 100% |
| DAPK2 (Homo sapiens, UniProt Q9UIK4) | 96% |

Sample 3
Host: mouse
Matrix: microsomes or S9
Concentration: 2 µM
Time: 0.5 h
| SMILES | remaining compound [%] |
| --- | --- |
| Clc1cccc(C(c2ccccc2)N2CCN(c3nn4nnnc4c4ccccc34)CC2)c1 (centres unmarked) | 84.2 |
| Clc1ncccc1-c1nc2ccccc2c2c(Br)cnn12 | 85 |
| Cc1ccc2cc(CNCC3COCCO3)c3nnnn3c2c1 (centres unmarked) | 94.2 |
| Nc1cccc(CCC2CCc3ccccc3N2)c1 (centres unmarked) | 8.94 |
| c1ccc2c(c1)n(CCN1CCCC1)c1nc(-c3ccc4c(c3)OCO4)cn21 | 33.5 |
| O=C1CC(c2ccc(S(=O)(=O)N3CCOC(COc4ccccc4)C3)cc2)CN1 (centres unmarked) | 54.4 |
| CCc1ncnc(Nc2cnn(Cc3nnc4n3CCCC4)c2)c1F | 85.6 |
| Cc1cc(F)c(S(N)(=O)=O)c(NCCCOC(C)C)c1 | 0.38 |
| O=C(Cc1noc2ccccc12)N1CCn2c1nc1ccccc12 | 0.0408 |
| CCN1C(=O)C2(NC(C)Cc3c2[nH]c2ccccc32)c2ccccc21 (centres unmarked) | 0.839 |
| CCCOc1cccc([C@@H]2c3ccc(OC)cc3OC(=O)[C@H]2C(C)(C)O)c1 | 18.1 |
| CC(c1ccc([S+](C)[O-])cc1)N(C)C(=O)C1CCC(c2ccccc2)CC1 (centres unmarked) | 26.8 |
| O=C(C1CCCN1S(=O)(=O)c1ccc(-c2ccc(=O)[nH]n2)s1)N1CCc2ccccc21 (centres unmarked) | 0.312 |

Further values, each from its own experiment
| Structure (SMILES) | test system | conditions | measurement | value |
| --- | --- | --- | --- | --- |
| CC(C)n1cnc(-c2ccc(F)cc2)c1-c1ncc(C(=O)Nc2ccc(N3CCN(C)CC3)cc2)[nH]1 | IPF patients | dose not given, all drug arms pooled | Cholecystitis incidence | 0% |

A few entries again (sample 3):
| SMILES | remaining compound [%] |
| --- | --- |
| CCCOc1cccc([C@@H]2c3ccc(OC)cc3OC(=O)[C@H]2C(C)(C)O)c1 | 18.1 |
| O=C(Cc1noc2ccccc12)N1CCn2c1nc1ccccc12 | 0.0408 |
| Nc1cccc(CCC2CCc3ccccc3N2)c1 (centres unmarked) | 8.94 |
| c1ccc2c(c1)n(CCN1CCCC1)c1nc(-c3ccc4c(c3)OCO4)cn21 | 33.5 |
| Cc1ccc2cc(CNCC3COCCO3)c3nnnn3c2c1 (centres unmarked) | 94.2 |
